Assay results pooled from the literature.
Target: Serine/threonine-protein kinase 32B (STK32B, Homo sapiens, UniProt Q9NY57)

Cc1ccc(C(=O)Nc2ccc(CN3CCN(C)CC3)c(C(F)(F)F)c2)cc1C#Cc1cnc2cccnn12 has an upper asymptote of 1360 (target engagement, NanoBRET; human cells).
CC(C)=CC1OC(C)(C)C2C=C3C(=O)C(Cl)=CC(O)C3C3C(O)C4OC4C(=O)C132 (centres unmarked) has a remaining binding of 91% (cell-free assay, competition with immobilised ligand; 10 µM).
For Nc1ncc(-c2cc(-c3cnn(CC(F)(F)F)c3)ncc2F)nc1C(=O)NC1CNCC(F)C1 (centres unmarked), the remaining activity was 90.3% (enzyme activity; 1 µM; reference: DMSO control).
For C=CC(=O)N1CCc2ccc(-n3c(=O)ccc4cnc5ccc(-c6cnn(C)c6)cc5c43)cc21, the remaining binding was 100% (KINOMEscan; 1 µM; reference: DMSO control).
For C=CC(=O)N1CCCC(n2c(=O)c3ncccc3n(Cc3ccc(Oc4ccccc4)cc3)c2=O)C1 (centres unmarked), the remaining binding was 84% (cell-free assay, competition with immobilised ligand; 1 µM).
With COc1c(Cl)cccc1Nc1c(-c2ccncc2C#C[C@@]2(C)CCCN2C(=O)/C=C/CN(C)C)[nH]c2c1C(=O)NCC2 the remaining binding was 28% (cell-free assay, competition with immobilised ligand; 3 µM).
For C=CC(=O)N1Cc2nc(-c3cc(-c4cc(Cl)cnc4Cl)c(F)cc3F)n(-c3ccncn3)c2C1, the inhibition was 7.3% (cell-free assay; 1 µM).
With NC(=O)C[C@H]1CCc2sc3ncnc(O[C@H]4CC[C@H](N5CCOCC5)CC4)c3c21 the inhibition was 1% (enzyme activity, inhibitor; 10 µM).
With CNC(=O)C1CCN(c2cc(C)c(F)cc2NC(=O)c2ccc(-c3cc(O)ccc3C)c(C)c2)CC1 the remaining binding was 87% (binding, competition with immobilised ligand; 1 µM).
The remaining binding of COc1cc(Nc2nccc(-c3cnn4nc(OC)ccc34)n2)cc(C(F)(F)F)c1 is reported as 100% (binding, competition with immobilised ligand; 1 µM).
For CN1CCN(Cc2ccc(-c3ccc(CO[C@H]4CCC[C@@H]4NC(=O)c4cc(-c5cnn(C)c5)cnc4N)cc3)cc2)CC1, the inhibition was 7% (enzyme activity, inhibitor; 0.1 µM).

A few entries again:
Cc1ccc(C(=O)Nc2ccc(CN3CCN(C)CC3)c(C(F)(F)F)c2)cc1C#Cc1cnc2cccnn12 has an upper asymptote of 1360 (target engagement, NanoBRET; human cells).
For CN1CCN(Cc2ccc(-c3ccc(CO[C@H]4CCC[C@@H]4NC(=O)c4cc(-c5cnn(C)c5)cnc4N)cc3)cc2)CC1, the inhibition was 7% (enzyme activity, inhibitor; 0.1 µM).
